Measurements collected from several papers.
Every numbered part comes from another study and shows a few of its results, in no order.

Block 1 — method: universal PBM; molecule type: double-stranded DNA, one strand shown; medium: in vitro; tested at: 600 nM; reading: higher = stronger binding; endpoint: E-score
Target: Sal-like protein 4, full length isoform A (SALL4, Homo sapiens, UniProt Q9UJQ4, residues 1-1053)
UniProt Q9UJQ4, sequence (whole entry, looked up): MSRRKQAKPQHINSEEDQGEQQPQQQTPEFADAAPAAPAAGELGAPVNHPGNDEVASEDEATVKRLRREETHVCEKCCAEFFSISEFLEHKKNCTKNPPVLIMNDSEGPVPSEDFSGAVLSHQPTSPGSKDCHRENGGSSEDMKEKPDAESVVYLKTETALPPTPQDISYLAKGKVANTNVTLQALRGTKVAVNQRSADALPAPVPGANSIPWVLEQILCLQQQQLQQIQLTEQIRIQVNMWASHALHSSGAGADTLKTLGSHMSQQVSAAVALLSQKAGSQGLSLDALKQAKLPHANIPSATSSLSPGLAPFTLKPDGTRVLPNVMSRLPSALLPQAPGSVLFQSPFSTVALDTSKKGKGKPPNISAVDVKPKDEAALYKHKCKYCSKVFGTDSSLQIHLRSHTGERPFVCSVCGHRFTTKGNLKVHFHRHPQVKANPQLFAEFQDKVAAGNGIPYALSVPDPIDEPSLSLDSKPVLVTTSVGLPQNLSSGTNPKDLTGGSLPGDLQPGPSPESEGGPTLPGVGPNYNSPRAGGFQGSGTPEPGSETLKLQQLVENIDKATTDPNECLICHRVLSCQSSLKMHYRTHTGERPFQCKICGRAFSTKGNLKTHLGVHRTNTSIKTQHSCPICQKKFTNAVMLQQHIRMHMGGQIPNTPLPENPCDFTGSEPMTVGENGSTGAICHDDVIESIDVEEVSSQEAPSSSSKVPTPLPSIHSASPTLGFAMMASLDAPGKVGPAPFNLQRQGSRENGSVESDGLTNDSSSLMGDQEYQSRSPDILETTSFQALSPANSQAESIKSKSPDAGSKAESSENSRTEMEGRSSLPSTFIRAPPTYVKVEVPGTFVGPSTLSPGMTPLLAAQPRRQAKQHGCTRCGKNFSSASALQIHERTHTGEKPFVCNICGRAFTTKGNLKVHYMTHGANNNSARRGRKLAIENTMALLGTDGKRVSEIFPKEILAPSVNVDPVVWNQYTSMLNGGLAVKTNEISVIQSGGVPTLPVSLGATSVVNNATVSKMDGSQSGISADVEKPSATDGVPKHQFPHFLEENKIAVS
Setting: 8-mer, flanks averaged, mean of replicates
ACGCTAGC: -0.246
AAACAGCA: 0.12
GCGATAAA: 0.0218
CTCGAAAA: 0.0735
CCATCGGG: -0.257
AGCTAGTG: -0.165
AAAGGTGC: -0.0146
GAGTAAAA: 0.156
AGGCGGAG: -0.121
AGCTGTAC: -0.196
AGCACAGC: -0.137
AGCTTTCG: -0.139

Block 2 — method: protein binding microarray; molecule type: double-stranded DNA, one strand shown; medium: in vitro; tested at: not given; reference: not given; reading: higher = stronger binding; endpoint: E-score
Target: Histone acetyltransferase KAT6A, winged helix 2, GST fusion (KAT6A, Homo sapiens, UniProt Q92794, residues 85-181)
Setting: 8-mer, flanks averaged, mean of 2 arrays, mostly near background
Construct (chain): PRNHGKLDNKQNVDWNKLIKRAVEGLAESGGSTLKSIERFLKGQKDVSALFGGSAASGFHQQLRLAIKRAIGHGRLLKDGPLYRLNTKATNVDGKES
CCATGCAG: -0.0489
ACATCGAA: 0.00988
TCAGGCGA: 0.0985
CCGCCCAA: -0.0189
AGTGCACT: -0.0169
AAGTTGCA: -0.15
GAAGGTCA: -0.156
ACTGGCCT: 0.0211
ATATCGGA: -0.0108
CTGGTCGC: 0.0781
GTAGAAGA: -0.145
CGGCCGAG: 0.129
AGTTGATA: 0.0129
CAAGAAAC: 0.161

Block 3 — method: RNA Bind-n-Seq; molecule type: RNA; medium: in vitro; tested at: not given; reference: input RNA pool; reading: higher = stronger binding; endpoint: bound/input enrichment
Target: RING finger protein unkempt homolog, zinc fingers 1-6, GST-SBP tag (UNK, Homo sapiens, UniProt Q9C0B0, residues 30-357)
Setting: RNA with constant flanks, human-mouse chimeric sites, ends assumed
Constant ends, left off below: GGGAGUUCUACAGUCCGACGAUC … CAACAGAGGAUUGAGCAUCA
Target sequence (chain): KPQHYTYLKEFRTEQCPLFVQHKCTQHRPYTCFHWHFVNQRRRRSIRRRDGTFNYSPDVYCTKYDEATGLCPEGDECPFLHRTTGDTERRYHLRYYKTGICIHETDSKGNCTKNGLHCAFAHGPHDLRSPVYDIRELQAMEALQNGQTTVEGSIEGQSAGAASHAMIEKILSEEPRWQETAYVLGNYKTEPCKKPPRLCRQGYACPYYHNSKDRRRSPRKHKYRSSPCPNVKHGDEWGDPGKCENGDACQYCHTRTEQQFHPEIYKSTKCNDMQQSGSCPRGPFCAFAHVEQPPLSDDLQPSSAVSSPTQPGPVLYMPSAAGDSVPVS
UCAGGAACCCAGACAAACAUGAAUGUAAAUGAAGUCAUUAGCAACAGAGCAAUUGAAAUGUUAGGAGGUGAACUUGGCAGCAAGAAGCCUGUGCACCCCAACGAUCAUGUUAACAAAAGC: 0.271 ratio
UUGUCGAAGACUCAACGAAAGACUCCAACGGUUAUUCAUAAACAUUAUCAAAUUCAUCGGAUUCGACAUUUUUACAUGAGAAAAGUCAAAUUUACUCAACAGAAUUACCAUGACAGACUG: 0.208 ratio
GGAUCUUGUGACUGGCUUUACUUAAUUGGUCAUUGAUAGCUUAACAAACAUGGAGAUAAGAUUAGAAAUCUUGACAUCAACAGGUAUUAAGCAGAAAAAACCAUGGCCACGUGUCUCCUG: 0.173 ratio
ACACAAUAUGAGACCAACAGCAUGGACUUCAAAGUUGGGGCAGAUGGGACAGUCUUCGCCACCCGGGAGUUGAAGAUCCCCUCCGAGCAGGUGGCGUUCACGGUGACUGCAUGGGACAGC: 0.265 ratio
UCAUUUUUCUCUUUUCUUUCUUUCCUUUAGGAAAAGCCUAAAGAUUAGUAAGAAAAGAAAAUAGAAGCCAUGUUUCGAAGACCUGUGUUACAGGUAUUUCGUCAGUUUGUAAGACAUGAG: 0.305 ratio
AUGGAACAUUUCGAUGCGUCACUCAGUACCUAUUUCAAGGCCUUCCUGGGCCCCCGAGAUACAAGAGUCAAAGGAUGGUUUCUUCUGGACAAUUACAUCCCUACGUUUAUCUGCUCUGUU: 0.0856 ratio
UUAUCCAAGACUCAACGAAAGACUCCAACGGUUAUUCAUAAACAUUACCAAAUACAUCGGAUUCGACAUUUUUAUAUGAGAAAAGUCAAAUUUACUCAACAGAAUUACCAUGAUAGACUG: 0.45 ratio

Block 4 — method: RNA Bind-n-Seq; molecule type: RNA; medium: in vitro; tested at: 365 nM; reference: no-protein control; reading: higher = stronger binding; endpoint: RBNS enrichment (R)
Target: RNA binding protein fox-1 homolog 2, RRM domain, GST-SBP tag (RBFOX2, Homo sapiens, UniProt O43251-10, residues 100-194)
Setting: natural RNA segment, single round, ends assumed
Constant ends, left off below: GGGAGUUCUACAGUCCGACGAUC … UGGAAUUCUCGGGUGCCAA
Construct (chain): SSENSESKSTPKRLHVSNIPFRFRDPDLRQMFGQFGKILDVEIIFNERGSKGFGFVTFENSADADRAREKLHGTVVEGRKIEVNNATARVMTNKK
ACAGAAGAUACAGUUGAGUUUGGCUCUUAAGAAAUCUGGAGAACUAUACCUGCUUCAGUGAAAUAAUUACAGAAUAUACUUAGAAAGGCAAAGUACAUUGUAAAAUAAAG: 0.588
AGCUGAAUAGUUUGCACAAGAACGGGAUGCUAGUAAAAACAUAAAAAUAACUCGAAUCAAAUUCCAAUUCCAGUGCCUCCUGUUUUCAAUACCAAGCAGGCAAUCCGCAU: 0.575
CUGCAUCCGAGUGGCCUUAUGACCGCAGAUGUCCUCUCGGCUGAAGACUGGAGGAAGUGAACACUGGAGUGAAGAAGCGGUCUGUGCGUUGGUGAAGAACACACAUCGAU: 0.599
CUCGCCAAGUUGAAGAGUCAAGUGCAGCCCCAGUGAAUUUCUUGUAAUGCAGCUUCCACUCCUCUCAUUGGAGGCCCUAUUUGGGAACACUGCAAGCCCUUAAUCAGCCC: 0.348
CCAUUCUGAUUCCAGUGACACUUGUCAGGAGUCAGAGCCUUGUCUGUUAGACUGGACAGCUUGUGGCAAGUAAGUUUGCCUGUAACAAGCCAGAUUUUUAUUGAUAUUGU: 0.546
AAGUCUUUUACAAGAGGGACAACCCUAUUUUGGGAAACAAUAUCUCAUGGGAAGAAAACUGUACACACUGAACGCAUAGCCCGCUUAGAGAUCACAUCGCCUCUUAGAGA: 0.182
UGGGAUCAGGUGGCCCUCCAACUCAGCACAGGAAAUAAGUAGAAACAUUUCAGCAGGCCACCUCCCCUCAUCUUCCCCGCCCUGUCCAGCGCCCUGGCAAAGGCUGACAA: 0.594
UUGUCUUGGGAAACGUAGUCUAGAAAAAGCCACGUAGAGAAUAACGUGAUGUUCUAGAGUUGUAUGUGUCUGGGUUCUUCCUAUGAGAUCUAAGGGGACGUUAUAAGUGA: 4.63
CCAUGAAUGAUUCUAUGAAGCUAUGCAUCUUAGACCUCUUGAGCUGUGAAUUAGCACUAUUUUCUAUAGUUACUUAUUCUCUGGAUCAUUUUAUAAUUUCCAUAUUAAUU: 3.25
AUUGCCUCCAUCUCAAUGUGAAUGCACCAGGCUGAGGGUUCCCUAGCGCCUUGAGUCAAGGCCACUUUUCAGCCCAUCGAGCCCUGAGUUCUACUUGGUGUUUGUUCUCU: 0.402
AGUGUUUUUAUGAAACAGAGAGCCACGGAAAAUCAUAUAUGAUUCAAUCCAGAUAUGGGUUAAAUUCCUCAUUUUACUUUUAAACUGGUGGUAAAGUGGAAAUUGCAAAA: 0.5
AGGACUUUCGGCAAGUCUCGUGACCUCUGGCUCUUUCACUUCCUCCCCACCUGCCAAAUGGGGAUAAAUAAUCUUACCUACCUCCUGGGGGGAGGGGAAGUUCUGAGAAU: 0.366

Block 5 — method: protein-binding microarray; molecule type: double-stranded DNA, one strand shown; medium: in vitro; tested at: 940 nM top; setting: 60-bp whole probe; with: salmon DNA 0.4 mg/ml; reference: random background probes; reading: higher = stronger binding; endpoint: fitted relative affinity; constant ends, left off below: GCCTAGCAC … GTCTTGATTCGCTTGACGCTGCTG
Target: Interferon regulatory factor 5, full length, phosphomimetic (IRF5, Homo sapiens, UniProt Q13568-2, residues 1-514, S451D/S453D/S456D/S462D)
TTAGATTTCCGTTCCGATTAGTGCTAG: 1.06 z-score
CTTCACATATAATTTTGTCATGTGCTA: 0.303 z-score
GTCGGTTTCGACACTGGGGACGTGCTA: 8.64 z-score
GACGGTTACGACACTGGGGACGTGCTA: -0.27 z-score
TCAAAAAAAAAAAACTGTACTGTGCTA: -0.0109 z-score
GACGGAATGGGACTGGGGACGTGCTAG: -0.344 z-score
TCATGTTTATGTCTGGGACTGTGCTAG: -0.103 z-score
TTAGGACTGGACTTTCAGTTAGTGCTA: 0.0933 z-score
TTAGGTTTCGCTATCGGTTAGTGCTAG: 8.89 z-score
TCTCTTTTTGCTTTCTTTTAGTGCTAG: 4.6 z-score
TTAGCTATCGACTATCGGTTAGTGCTA: 0.494 z-score
GACGATCTCAGTATCGAGCCGTGCTAG: 1.46 z-score
TTGGCTTCCTCTTTCTCTGCGTGCTAG: 0.737 z-score
GACGATATCGGGTTTCGAGTCGTGCTA: 3.32 z-score
TCCTCTTTCACTGGTCCTCATGTGCTA: 2.22 z-score
GACGGTTTCGACACTGGGTACGTGCTA: 6.88 z-score
TTAGGACTGGGGACTGGGGTAGTGCTA: -0.0513 z-score
TTAGGTATTCTACTGCTTTAGTGCTAG: 0.21 z-score
CTTATTCTCTACTTGTGTCTGTGCTAG: 2.51 z-score
TTAGGACTGGGTTTGGGTTAGTGCTAG: -0.399 z-score
TCAGGTTCCGGTTTCGGTTAGTGCTAG: 9.77 z-score
GCCGATATCAGTTTCGAGACGTGCTAG: 4.35 z-score
TTAAATCTCAGTTTCGATTAGTGCTAG: 8.84 z-score
TTAGGTATCAGACTGGATTAGTGCTAG: 0.756 z-score
TTAGATATCAGACTTGATTAGTGCTAG: -0.195 z-score

Excerpt of the above (block 1):
AAAGGTGC: -0.0146
GCGATAAA: 0.0218
AGCTAGTG: -0.165
ACGCTAGC: -0.246
CTCGAAAA: 0.0735
AAACAGCA: 0.12
